Measurements collected from several papers.
Parts stem from different laboratories: compare values within a part only.

Study 1
Target: Sal-like protein 4, full length isoform A (SALL4, Homo sapiens, UniProt Q9UJQ4, residues 1-1053)
Chain of UniProt Q9UJQ4 (whole entry, looked up): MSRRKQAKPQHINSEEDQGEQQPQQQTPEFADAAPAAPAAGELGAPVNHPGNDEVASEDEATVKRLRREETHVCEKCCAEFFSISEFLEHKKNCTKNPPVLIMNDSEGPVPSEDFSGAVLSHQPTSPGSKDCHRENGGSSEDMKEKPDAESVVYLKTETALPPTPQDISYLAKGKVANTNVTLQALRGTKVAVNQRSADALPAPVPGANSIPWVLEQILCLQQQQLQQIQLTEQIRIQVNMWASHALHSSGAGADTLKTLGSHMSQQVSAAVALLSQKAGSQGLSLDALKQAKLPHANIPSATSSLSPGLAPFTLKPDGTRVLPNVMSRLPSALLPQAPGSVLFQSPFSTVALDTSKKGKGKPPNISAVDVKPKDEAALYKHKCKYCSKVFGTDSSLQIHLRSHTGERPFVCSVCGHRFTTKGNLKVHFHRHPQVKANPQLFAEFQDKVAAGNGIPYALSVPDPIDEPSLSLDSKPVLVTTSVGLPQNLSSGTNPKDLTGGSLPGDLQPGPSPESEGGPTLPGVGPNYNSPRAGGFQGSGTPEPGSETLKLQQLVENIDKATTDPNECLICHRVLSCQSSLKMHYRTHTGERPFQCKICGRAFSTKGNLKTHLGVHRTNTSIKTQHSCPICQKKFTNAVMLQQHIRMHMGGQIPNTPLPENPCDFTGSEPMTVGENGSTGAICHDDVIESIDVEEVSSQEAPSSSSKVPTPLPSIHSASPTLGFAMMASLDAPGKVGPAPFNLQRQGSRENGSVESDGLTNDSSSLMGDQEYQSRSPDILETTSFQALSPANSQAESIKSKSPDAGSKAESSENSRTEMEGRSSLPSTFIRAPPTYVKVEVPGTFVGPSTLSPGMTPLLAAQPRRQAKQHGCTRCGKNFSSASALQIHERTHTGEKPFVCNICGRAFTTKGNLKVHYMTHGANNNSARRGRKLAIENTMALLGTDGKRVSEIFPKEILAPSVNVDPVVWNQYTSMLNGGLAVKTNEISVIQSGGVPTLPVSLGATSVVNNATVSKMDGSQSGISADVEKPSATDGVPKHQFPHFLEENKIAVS
Technique: universal PBM
Form: double-stranded DNA, one strand shown
Sample: in vitro
Concentration: 600 nM
Setting: 8-mer, flanks averaged, mean of replicates
Reading: higher = stronger binding
Oligonucleotide | E-score
AGTGATAA | 0.259
ATTTGATC | 0.0438
CATCGGGA | -0.137
GAGCAGAC | -0.062
CCAGATGG | -0.304
ACTTTAAC | 0.196
GATCTTAA | 0.0335
TGCACGCA | -0.0504

Study 2
Target: Interferon regulatory factor 5, full length, phosphomimetic (IRF5, Homo sapiens, UniProt Q13568-2, residues 1-514, K96S/S451D/S453D/S456D/S462D)
Technique: protein-binding microarray
Form: double-stranded DNA, one strand shown
Sample: in vitro
Concentration: 250 nM
Setting: 60-bp whole probe
Added: salmon DNA 0.4 mg/ml
Baseline: random background probes
Reading: higher = stronger binding
All sequences stand within: GCCTAGCAC … GTCTTGATTCGCTTGACGCTGCTG
Oligonucleotide | log fluorescence [z-score]
TTAGATTGCAGACTGGATTAGTGCTAG | -0.332
TCATCTTTCCACTTTCTACTGTGCTAG | 2.71
GACGGTATCGGTCTCGGGAGGTGCTAG | 5.1
AAGAAGCTTCCTCTCTGCCAGTGCTAG | -0.186
CCTCCTCTAACTTTCCAATTGTGCTAG | 0.655
TTAGAACTGAGTCTCTATTAGTGCTAG | 0.0809
GACGGACTGTGGACTGGGGACGTGCTA | -0.675
TGTCATATACACATCTTCTGGTGCTAG | 0.382

Study 3
Target: Replicase polyprotein 1ab, nsp13 helicase (rep, Severe acute respiratory syndrome coronavirus 2, UniProt P0DTD1)
Mode: inhibitor
Concentration: 20 µM
Compound | inhibition
Cc1cc2c(N3CCCC3)nc(N3CCCC3)nc2n1C | 12.4%
C=C(CC)C(=O)c1ccc(OCC(=O)O)c(Cl)c1Cl | 54.7%
CC(C)C[C@@H](N)C(=O)N[C@H]1C(=O)N[C@@H](CC(N)=O)C(=O)N[C@H]2C(=O)N[C@H]3C(=O)N[C@H](C(=O)N[C@H](C(=O)O)c4cc(O)cc(O)c4-c4cc3ccc4O)[C@H](O)c3ccc(c(Cl)c3)Oc3cc2cc(c3O[C@@H]2O[C@H](CO)[C@@H](O)[C@H](O)[C@H]2O[C@H]2C[C@](C)(N)[C@H](O)[C@H](C)O2)Oc2ccc(cc2Cl)[C@H]1O | 9.86%
Cc1[nH]c2ccccc2c1CCNC(=O)c1cccs1 | -3.65%
OCCNCCCOc1cccc(Cl)c1Cl | 3.34%
CC(N)Cc1c[nH]c2ccc(OCc3cccs3)cc12 (stereo not drawn) | 5.85%
C[C@@H](c1nc(-c2ccc(C#N)cc2)cs1)[C@](O)(Cn1cncn1)c1cc(F)ccc1F | 6.19%
OC[C@@H](O)[C@@H](O)[C@@H](O)CO | -1.87%
Oc1ccc2ccccc2c1SSc1c(O)ccc2ccccc12 | 81%
c1ccc(CCNc2nc(-c3ccccc3)cs2)cc1 | 5.31%
O=C(Nc1ncc(SCCN2CCCC2)s1)[C@]1(c2ccc(S(=O)(=O)C3CC3)cc2)C[C@H]1C1CCCCC1 | 6.43%
COc1ccc(-c2csc(NC(=O)[C@H]3CCCCN3S(=O)(=O)c3ccc(C)cc3)n2)cc1 | 4.03%
Cc1cc(O)c(-c2ccc([C@@H](C)CN)cc2)c2c1[nH]c(=O)c1sccc12 | 2.07%
OC(CCN1CCCCC1)(c1ccccc1)C1CCCCC1 (stereo not drawn) | -1.56%
O=C1Cc2c([nH]c3ccc(Br)cc23)-c2ccccc2N1 | 2.53%
Cc1ccc(Sc2ccccc2N2CCNCC2)c(C)c1 | 1.43%
Cc1c(C2CCN(CCc3ccccc3)CC2)noc1-c1ccc(Cl)cc1 | -0.1%
CC(=O)O[C@]1(C(C)=O)CC[C@H]2[C@@H]3C=C(Cl)C4=CC(=O)[C@@H]5C[C@@H]5[C@]4(C)[C@H]3CC[C@@]21C | 8.58%
Cc1cccn2c(=O)c(-c3nnn[nH]3)cnc12 | -0.48%
Oc1c(Cl)cc(Cl)c2cccnc12 | 3.78%
O=c1c(O)c(-c2ccc(O)cc2)oc2cc(O)cc(O)c12 | 3.36%
CCCCCCCCCCCCCCCC(=O)OCCC1CCN(CCCN2c3ccccc3Sc3ccc(S(=O)(=O)N(C)C)cc32)CC1 | 3.23%
CC1CCc2c(cc(Br)c(F)c2Br)N1C=O (stereo not drawn) | -2.63%
CCOC(=O)Nc1ccc2c(c1)N(C(=O)CN(CC)CC)c1ccccc1CC2 | 5.27%
CCOC(=O)c1cncn1[C@H](C)c1ccccc1 | 1.86%

Study 4
Target: Histone acetyltransferase KAT6A, both winged helices, GST fusion (KAT6A, Homo sapiens, UniProt Q92794, residues 1-181)
Technique: protein binding microarray
Form: double-stranded DNA, one strand shown
Sample: in vitro
Concentration: not given
Setting: 8-mer, flanks averaged, mean of 2 arrays, mostly near background
Baseline: not given
Reading: higher = stronger binding
Construct (chain): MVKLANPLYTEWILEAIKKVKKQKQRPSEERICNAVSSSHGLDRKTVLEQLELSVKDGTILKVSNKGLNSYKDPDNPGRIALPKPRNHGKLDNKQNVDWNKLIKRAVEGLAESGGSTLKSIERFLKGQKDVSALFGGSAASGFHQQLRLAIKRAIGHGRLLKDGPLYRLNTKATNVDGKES
Oligonucleotide | E-score
ACGTGTGA | -0.0129
GCTAAGCC | 0.162
CCCTACCA | 0.0314
CCTACGTC | -0.11
CGCAATAC | 0.212
GGCCAAAA | -0.0228
CTAGAGCA | -0.121
TACTGTAA | -0.0712

Mixed results
Cell line: HEK-293T
Effect on: pseudovirus infection
Organism: VSV pseudotyped with SARS-CoV-2 spike
Concentration: 10 µM
Time: 16 h
Baseline: vehicle-treated
SMILES | technique | GFP-positive cells
Nc1nc(F)nc2c1ncn2[C@@H]1O[C@H](CO)[C@@H](O)[C@@H]1O | – | 70.7%
COc1ccc(C(CN(C)C)C2(O)CCCCC2)cc1 (stereo not drawn) | FDA-approved drug library screen | 83.7%

Repeated from above (study 1):
Oligonucleotide | E-score
CATCGGGA | -0.137
GATCTTAA | 0.0335
ATTTGATC | 0.0438
